Assay results from different studies.
Each line is one published result; not all experiments were run side by side. Numbers after ± are the reported error.
D2 helicase 1-928: D2 helicase 1-928 (Escherichia phage T5, UniProt Q6QGH9)
UniProt Q6QGH9, sequence (whole entry, looked up): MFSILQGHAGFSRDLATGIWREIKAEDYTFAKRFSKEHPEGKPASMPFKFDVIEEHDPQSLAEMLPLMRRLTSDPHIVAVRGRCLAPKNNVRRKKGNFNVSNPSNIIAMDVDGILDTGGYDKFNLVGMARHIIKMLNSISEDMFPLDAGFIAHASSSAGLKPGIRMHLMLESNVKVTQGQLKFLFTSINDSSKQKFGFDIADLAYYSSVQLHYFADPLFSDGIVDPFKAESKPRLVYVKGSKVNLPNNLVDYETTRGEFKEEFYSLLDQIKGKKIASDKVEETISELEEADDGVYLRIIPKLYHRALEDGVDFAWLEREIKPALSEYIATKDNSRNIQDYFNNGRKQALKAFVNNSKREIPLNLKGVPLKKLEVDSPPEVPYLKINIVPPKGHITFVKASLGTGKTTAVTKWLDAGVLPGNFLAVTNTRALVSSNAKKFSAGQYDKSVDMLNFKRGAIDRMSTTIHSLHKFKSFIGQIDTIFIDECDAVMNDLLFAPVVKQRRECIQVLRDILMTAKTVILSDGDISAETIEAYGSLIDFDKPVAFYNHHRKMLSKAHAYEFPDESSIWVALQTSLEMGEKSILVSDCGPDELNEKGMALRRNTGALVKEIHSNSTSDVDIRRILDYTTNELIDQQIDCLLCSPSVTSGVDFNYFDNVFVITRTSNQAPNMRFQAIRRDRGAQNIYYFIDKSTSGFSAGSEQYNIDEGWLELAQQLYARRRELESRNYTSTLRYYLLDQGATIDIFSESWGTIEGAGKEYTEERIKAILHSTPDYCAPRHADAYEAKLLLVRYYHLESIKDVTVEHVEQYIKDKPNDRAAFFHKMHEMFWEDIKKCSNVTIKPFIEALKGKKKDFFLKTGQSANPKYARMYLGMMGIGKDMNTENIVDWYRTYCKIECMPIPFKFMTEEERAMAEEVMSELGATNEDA
UniProt Q96P16, sequence (2-137, looked up): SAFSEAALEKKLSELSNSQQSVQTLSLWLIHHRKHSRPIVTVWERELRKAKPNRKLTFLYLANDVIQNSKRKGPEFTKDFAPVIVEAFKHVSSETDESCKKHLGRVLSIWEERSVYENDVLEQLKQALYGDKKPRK
UniProt O51418, sequence (whole entry, looked up): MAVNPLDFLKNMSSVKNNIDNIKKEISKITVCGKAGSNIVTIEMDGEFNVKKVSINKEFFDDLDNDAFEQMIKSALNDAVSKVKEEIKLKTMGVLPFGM

| Substance | target or system | technique | molecule type | tested at | setting | quantity | result |
| --- | --- | --- | --- | --- | --- | --- | --- |
| CGAATTCGAGCTCGGTACCC (dsDNA) | D2 helicase 1-928 | EMSA | double-stranded DNA, one strand shown | 0.1 nM | without ATP/Mg2+ | binding | no binding |
| TTTTTTTTTTTTTTT (ssDNA) | DNA processing chain A (DprA) 5-217 (Helicobacter pylori, UniProt O25100) | MST | single-stranded DNA | – | – | Kd | 18.4 ± 0.574 µM |
| TTGTAATGAGTAGTGCATTTGCAATGGAGAGATTTTGGGGAGTTGTTTAAAATTACATTTGCGTTTTGTTAAAATGTAACAGCTGAATGTAACAAAATTATATATTTAAATCTTTGAAATATTGC (dsDNA) | ebfC (Borreliella burgdorferi, UniProt O51418) | EMSA | double-stranded DNA, one strand shown | – | – | binding | binds |
| RNA polymerase II CTD 19-residue peptide, phosphoserine S7 (Homo sapiens) (sequence not shown) | RPRD2 CID, to residue 161 (Homo sapiens, UniProt Q5VT52) | ITC | – | – | read off a plot | Kd | 82.8 µM |
| TATTTAGTTAGATATCTAACTAAATA (dsDNA (Staphylococcus aureus); blunt, self-complementary) | MarR family regulatory protein full length assumed Q18P (Staphylococcus aureus, UniProt Q5Y812) | ITC | double-stranded DNA, one strand shown | – | – | Kd | 61.4 µM |
| SPKYSPTSPKYSPTSPKYS (RNA polymerase II CTD (Homo sapiens); phosphoserine S2) | RPRD1A CID, residues 2-137 (Homo sapiens, UniProt Q96P16) | ITC | peptide | – | read off a plot | Kd | 1 µM |
| CATTTAGGGCTAAAGTCCTATGGTAACCTGA (dsDNA) | LiaR D191N (Enterococcus faecalis, UniProt R3G073) | MST | double-stranded DNA, one strand shown | – | – | Kd | 0.37 ± 0.02 µM |
| TTCGAAACGTGCGCGCCCATCGAATTCGAGCTCGGTACCC (dsDNA) | D2 helicase 1-928 | EMSA | double-stranded DNA, one strand shown | 0.1 nM | without ATP/Mg2+ | binding | no binding |
| AGAAATCGTTCTTAAGTCCTATGACA (dsDNA) | LiaR D50E/D191N (Enterococcus faecalis, UniProt R3G073) | MST | double-stranded DNA, one strand shown | – | – | Kd | 3.63 ± 0.55 µM |
| TTCCTCATGCTTTAGCTAGAATCCCCTAGCTTTAGCTATGGGGAGTATGTCAACAAATTTGCCTAATGAC (ssDNA; hairpin) | tnpA Y127F (Helicobacter pylori, UniProt Q933Z0) | phenanthroline-copper footprinting | single-stranded DNA | – | – | binding | binds |

Excerpt of the above:
| Substance | target or system | technique | molecule type | tested at | setting | quantity | result |
| --- | --- | --- | --- | --- | --- | --- | --- |
| RNA polymerase II CTD 19-residue peptide, phosphoserine S7 (Homo sapiens) (sequence not shown) | RPRD2 CID, to residue 161 (Homo sapiens, UniProt Q5VT52) | ITC | – | – | read off a plot | Kd | 82.8 µM |
